Measurements of several laboratories.
Each numbered part is a random draw from the data of one study; scales do not carry over between parts. Substitutions count along the parent as printed.

Block 1 — method: universal PBM; form: double-stranded DNA, one strand shown; matrix: in vitro; tested at: 600 nM; reading: higher = stronger binding
Target: Sal-like protein 4, full length isoform A (SALL4, Homo sapiens, UniProt Q9UJQ4, residues 1-1053)
Sequence of UniProt Q9UJQ4 (whole entry, looked up): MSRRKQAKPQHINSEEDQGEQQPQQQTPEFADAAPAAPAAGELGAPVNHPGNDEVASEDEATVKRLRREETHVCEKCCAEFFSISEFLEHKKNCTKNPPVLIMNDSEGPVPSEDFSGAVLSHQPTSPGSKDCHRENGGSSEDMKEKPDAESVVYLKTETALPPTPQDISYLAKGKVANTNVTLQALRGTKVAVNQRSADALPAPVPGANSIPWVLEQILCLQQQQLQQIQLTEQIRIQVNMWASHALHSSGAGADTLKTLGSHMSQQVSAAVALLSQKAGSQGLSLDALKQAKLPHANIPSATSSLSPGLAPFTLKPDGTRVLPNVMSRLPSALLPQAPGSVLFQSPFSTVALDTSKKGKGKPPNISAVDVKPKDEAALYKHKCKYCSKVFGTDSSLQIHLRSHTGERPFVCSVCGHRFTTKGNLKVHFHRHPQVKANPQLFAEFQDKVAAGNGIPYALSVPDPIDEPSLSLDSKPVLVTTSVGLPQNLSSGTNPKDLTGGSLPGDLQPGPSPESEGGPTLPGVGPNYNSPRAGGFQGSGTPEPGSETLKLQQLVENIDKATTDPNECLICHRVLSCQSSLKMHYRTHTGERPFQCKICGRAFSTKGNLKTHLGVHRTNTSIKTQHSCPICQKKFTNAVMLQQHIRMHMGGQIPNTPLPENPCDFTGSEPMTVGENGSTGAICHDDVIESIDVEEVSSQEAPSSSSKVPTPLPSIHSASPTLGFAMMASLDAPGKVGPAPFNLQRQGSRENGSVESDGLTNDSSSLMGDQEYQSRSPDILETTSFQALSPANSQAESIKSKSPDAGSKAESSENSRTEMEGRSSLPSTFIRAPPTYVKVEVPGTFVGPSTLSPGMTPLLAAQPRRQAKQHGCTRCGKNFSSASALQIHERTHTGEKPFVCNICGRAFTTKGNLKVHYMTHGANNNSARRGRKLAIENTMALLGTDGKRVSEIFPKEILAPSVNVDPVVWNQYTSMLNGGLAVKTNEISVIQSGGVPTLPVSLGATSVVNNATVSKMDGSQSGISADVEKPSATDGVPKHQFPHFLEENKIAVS
Setting: 8-mer, flanks averaged, mean of replicates
Sequence | E-score
GTCAGTTA | 0.0729
CCCCCAAC | -0.322
GCAGCTAA | -0.233
ACCAAAGA | 0.235
ACCTTGAC | -0.135
AAACATCA | 0.218
CGAGCATC | -0.202
AAAATCGA | 0.134
GTGCGTCA | -0.226
CTATTAAG | 0.151
ATAGACGA | 0.147
TAGAAAAA | 0.223
ATCGCGAA | -0.0532
GAGATCAA | 0.108
CAGAAACA | 0.0791
CCGTCTTA | -0.0908
GAAACCTA | -0.0199
CCGCGGTC | -0.427
ATCGTCCC | 0.0164
CGTATGCA | 0.0985
ATGTTAAG | 0.18
GCTAACAA | 0.0887
ACAGCGAC | -0.226
ACTGCTGC | -0.177
AAACAGTG | 0.0551

Block 2 — method: RNA Bind-n-Seq; form: RNA; matrix: in vitro; tested at: 365 nM; baseline: no-protein control; reading: higher = stronger binding
Target: RNA binding protein fox-1 homolog 2, RRM domain, GST-SBP tag (RBFOX2, Homo sapiens, UniProt O43251-10, residues 100-194)
Setting: natural RNA segment, single round, ends assumed
All sequences stand within: GGGAGUUCUACAGUCCGACGAUC … UGGAAUUCUCGGGUGCCAA
Construct (chain): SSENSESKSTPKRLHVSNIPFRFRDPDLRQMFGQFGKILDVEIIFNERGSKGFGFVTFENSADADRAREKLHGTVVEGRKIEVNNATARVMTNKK
Sequence | RBNS enrichment (R)
GCUGCAGCUCUGCAUGCAAUUUAGUGGAAAAGAAGAGGAAGUCCAGACUUGAGUUGCCUGGCUACAUUGCUGAAAGCUUUGUAGCACUUGAAAAUUAAAUAUUGAUUUGU | 0.953
UUGGGCUGCCCCCAUCUCUCCCAACAAGGUGUACAUAUUCUGCGUAGAUGCUAGACCAACCAGCUUCCCAGGGUUCGUCGCUGUGAGGCGUAAGGGACAUGAAUUCUAGG | 0.278
GUGAGCAUCGCAGUAGCCAGCCACAGAAGCUAACAAGCCUUGAACCACUCUGGUGGCCACACAGCGCCUCAGAGAGCAUUCUGGGAAGUGCCUGUUUCCGAGGAACCCUG | 0.345
GGCACAUUCCUGUACCCUUUAAAUGGGAAAGCAGUUAACGGAAGGGCCACAGGGUCAGAUGAGGGCUGCCUUUCGCUGCUGUGAACACUUACAGUACACCUGACUUGGAA | 0.73
UGUUAUAACUUAGUGACUUUUGAUUUCUAGAGGUGUAAAUGAGGAUGUAAAAAUUGAUAUAGUUGUGAUACAGAGUAUAUUUCCCUUCAGAUAACAUACCACAACACAAU | 0.593
CUUUUAACUGGGGUAUUAACUUUUUUAGAAUGACACAGCUGAACAGUGUUAAUAAUAGUGUGUCAAGAUUGCAAAGUCGACAUACUCAUUUGGUUUAAGCAGGAAUCCUA | 0.42
AGAGGCCACCUAGUCACUGGUCCACAUAACCCUUGACCCCUUCUUCUUCAUAGAGGAAACAAUGUGCCAGUCUUAUUCUUUUCUUCAACAACCUUGACUUCCAUGGAGGA | 0.495
AGCGCCACGGACCUCUCUGGGGAGUGGCCGGAAAGCUCCCGGGCCUCUGGCCUGCAGGGCAGCCCAAGUCAUGACUCAGACCAGGUCCCACACUGAGCUGCCCACACUCG | 0.19
UGGCCCUGGCAGCCCCGCCAUCCCCAUCCCCUGCCACGUGCUGCUCCCUCCAUCUGGUCCCUGCCCCUCAGCCAGCGGAGGAGCCCGCUGGGCCCUUCCCUGCCCGUCCC | 0.335
AGAGGGAUUAAGCCCACACCCUGGCUUCCAUUCCAUAUCAGGUACAGGAUUUGAUGUUAUUAACAUUUGUCGUCAUACCUCAUAAGUCGGUCCCUGCCUUGUCUGUCUAG | 0.29
AGGCUCAGUCUUUAGAGGCACUCCCUCUAGUUGAUUAGCACUGUCUUCUGUGGAGUUUGGUUCAAAGACUGGUAUGGCAGAUAGAGGCUUGGAUGCAUUUUUCAUCAGGC | 0.528
CAGUACGUUCUCAGGAUGCAUCCAGGGGUUCAUUUUCAUGAGCCUGUCCAGGUUAGUUUACUCCUGACCACUAAUAGCAUUGUCAUUUGGGCUUUCUGUUGAAUGAAUCA | 0.364

Block 3 — method: RNA Bind-n-Seq; form: RNA; matrix: in vitro; tested at: 100 nM; baseline: input RNA pool; reading: higher = stronger binding
Target: RING finger protein unkempt homolog, zinc fingers 1-6, SBP tag (UNK, Homo sapiens, UniProt Q9C0B0, residues 30-357)
Sequence of UniProt Q9C0B0 (30-357, looked up): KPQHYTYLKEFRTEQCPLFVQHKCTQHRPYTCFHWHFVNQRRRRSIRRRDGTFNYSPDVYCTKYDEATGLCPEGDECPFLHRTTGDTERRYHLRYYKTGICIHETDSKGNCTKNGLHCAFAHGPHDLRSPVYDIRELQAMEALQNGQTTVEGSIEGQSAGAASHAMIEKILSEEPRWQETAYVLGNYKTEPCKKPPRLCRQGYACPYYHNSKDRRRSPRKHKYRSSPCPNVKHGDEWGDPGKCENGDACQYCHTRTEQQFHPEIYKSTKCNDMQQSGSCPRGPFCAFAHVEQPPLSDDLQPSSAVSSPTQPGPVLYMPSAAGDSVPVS
Setting: RNA with constant flanks, vertebrate orthologous sites, ends assumed
All sequences stand within: GGGAGUUCUACAGUCCGACGAUC … CAACAGAGGAUUGAGCAUCA
Sequence | bound/input enrichment
UAAUGCAAUGCUUGAAGGCUCUGAGCUCAAAAAGAUUCGGUCCAACUCUAGAGUGUACCACCGGUAUUUCUUUUUAGAAGCAGAUAUGCAGUUCCUACGCUGGGAACCUUCAAAGAAGGA | 0.336 ratio
GUGUUGGUGCAGAGUGCUCUGUACCAGUGCUCAUCAUCCCUUCUUCAUAUCAGUUGUCCCUAGUUAUAGGAAUUUAAUAUUUUUAAAAGUUUUACAUUGCUGUAUAUUCAAAGAUUUGUU | 0.855 ratio
AGAAUCUAAAAUUAUGGCAGAAGAGCCAAGCAGUAGCAUUUUUUCCAUAAAUGUAAAAAUUAGAUCCAGCCUUUGUUUCCUUAUUCAACUUUAAAAAUAAAAAUACCUCAGUACUAUGUU | 0.912 ratio
CAGCAAACUCCCUCAUUGGCCGCGCAGCGCACAUCGCCGUCCUGGAUUCUGAGAUCUUUCUGGAGAAGUUCUUCCUCGUUGCUGGCCUCAAAUACUUUCAGUAGAACAGAAUCGGAAUCA | 0.285 ratio
CAUUGUGUACAGAGGGGAGAUAUUAAAUAGUAUUUGUCUUCCUUUACCUUUUUUUUUUUGUCCCCUACUUUUUAAAAUUUCAAACUUUACUGCUCUUUGAAAUGAUAAUUCCAGUUUUCA | 0.92 ratio
AUGUCUAGUGCUUAAGCCAGCAAUUAUAGAAUGCUAUUUAUUUAUGUCUAAGUUUGUACAUAUCUUAACCUCAUUGUUGCUGAGUUUCAUUUUAAGGAAGGCAAGUUUGAGUUUUAUUUC | 0.611 ratio
CAUCUCUCAUUUUAUGUAUCCAGAAAUGGCUUUGAAUUUUUUAAAAAUUGCUGUUUUAAUUAGUUUUGCCCUCACGAGGUGUUGUUAUAGUUUACCAGAAACAGGUAUCUGUCUGAAUUA | 1.05 ratio

Block 4 — method: protein binding microarray; form: double-stranded DNA, one strand shown; matrix: in vitro; tested at: not given; baseline: not given; reading: higher = stronger binding
Target: Histone acetyltransferase KAT6A, both winged helices, GST fusion (KAT6A, Homo sapiens, UniProt Q92794, residues 1-181)
Setting: 8-mer, flanks averaged, mean of 2 arrays, mostly near background
Construct (chain): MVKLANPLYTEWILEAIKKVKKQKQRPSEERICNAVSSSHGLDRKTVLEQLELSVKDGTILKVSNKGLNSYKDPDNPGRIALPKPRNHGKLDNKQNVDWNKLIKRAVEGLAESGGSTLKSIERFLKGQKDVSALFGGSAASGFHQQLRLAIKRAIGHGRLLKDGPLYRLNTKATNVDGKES
Sequence | E-score
ACACGCAG | 0.0584
ATCACTTG | -0.166
ACAGAGTG | -0.171
CCAAGCTC | -0.155
CGCCACGA | 0.155
AGGCCAGA | -0.145
CTCAGGCA | -0.154
GTTTCTGA | -0.0258
CACCGGAA | 0.119
TCGGCCGA | 0.287
GCGCCATA | 0.21
ACTTCAGG | -0.107
AAGCTCTC | -0.255
AGTCCGCA | 0.216
ACTTTGCG | 0.0982
ACTAGCCG | 0.232
CGCGGACA | 0.298
GGACCATA | -0.046
ATTGACGA | 0.0589
CGCCTATA | 0.202
GTCGTTAA | -0.0789
ACGGGACC | 0.233

Block 5 — target: CCNA1, cyclin fold, Cln2 fusion (human); method: yeast growth competition, sequencing; matrix: yeast; setting: weak parent motif; baseline: not given; reading: higher = stronger binding
Starting sequence: PKMYT1 docking peptide (human); SFEPRNLLSLFED
Change | normalised enrichment score
SFEPRNHLSLFED [L7H] | 0.24
SFEPHNLLSLFED [R5H] | -0.17
SFEPRNLLSDFED [L10D] | 0.233
SFEPGNLLSLFED [R5G] | 0.377
SFEPRNLLSLFLD [E12L] | -0.395
SMEPRNLLSLFED [F2M] | -0.206
KFEPRNLLSLFED [S1K] | -0.173
SFEPRNLFSLFED [L8F] | 0.0722
SFEPRPLLSLFED [N6P] | 0.336
SFWPRNLLSLFED [E3W] | -0.0273
SFEPRNLLSLFYD [E12Y] | 0.277
EFEPRNLLSLFED [S1E] | -0.0473
SFEHRNLLSLFED [P4H] | 0.0319
LFEPRNLLSLFED [S1L] | 0.508
SREPRNLLSLFED [F2R] | 0.384
SFEPRNLLSLFER [D13R] | -0.149
STEPRNLLSLFED [F2T] | 0.399
SFEPRNLLSLQED [F11Q] | 0.574

Block 6 — method: protein-binding microarray; form: double-stranded DNA, one strand shown; matrix: in vitro; tested at: 2540 nM top; setting: 60-bp whole probe; together with: salmon DNA 0.4 mg/ml; baseline: random background probes; reading: higher = stronger binding; all sequences stand within: GCCTAGCAC … GTCTTGATTCGCTTGACGCTGCTG
Target: Interferon regulatory factor 3, full length, phosphomimetic (IRF3, Homo sapiens, UniProt Q14653, residues 1-427, S386D/S396D/S398D/S402D/T404D/S405D)
Sequence of UniProt Q14653 (whole entry, unmodified, looked up): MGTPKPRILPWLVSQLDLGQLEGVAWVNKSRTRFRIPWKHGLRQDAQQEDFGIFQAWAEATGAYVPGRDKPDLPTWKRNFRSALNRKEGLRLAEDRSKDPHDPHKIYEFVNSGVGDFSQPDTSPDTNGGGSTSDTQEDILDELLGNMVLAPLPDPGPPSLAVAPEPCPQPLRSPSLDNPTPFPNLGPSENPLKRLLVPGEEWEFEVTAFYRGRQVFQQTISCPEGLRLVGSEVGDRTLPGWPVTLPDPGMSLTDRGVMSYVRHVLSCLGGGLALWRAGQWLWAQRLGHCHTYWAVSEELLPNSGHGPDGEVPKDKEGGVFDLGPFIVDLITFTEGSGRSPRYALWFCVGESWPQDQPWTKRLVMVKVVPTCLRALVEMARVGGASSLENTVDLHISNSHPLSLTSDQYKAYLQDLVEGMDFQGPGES
Sequence | fitted relative affinity
ACTCTAATCTCACTCTGTCCGTGCTAG | 0.631 z-score
GACGGTATCGTACTGCTGACGTGCTAG | 1.48 z-score
TTCGGTATCCTTATCCTTTAGTGCTAG | 5.84 z-score
TTAAGTATCGACTTTCGGTTAGTGCTA | 2.31 z-score
GCCGGTTCCGGTTTCGGGACGTGCTAG | 6.35 z-score
ATAGAACTGAGTTTCGATTAGTGCTAG | 2.75 z-score
GTTTTTTTCTATATGCAATGGTGCTAG | 2.14 z-score
CTAGGTTTCCTTATCCTTTAGTGCTAG | 8.04 z-score
TAAGGACTGGGGTTTCGGTTAGTGCTA | 2.65 z-score
TCAACACTAATTTTCAAACTGTGCTAG | 0.368 z-score
AGGACCATCCCTTATAAATAGGTGCTA | 0.301 z-score
GACGGTCTCCTTCTCCTGACGTGCTAG | 4.33 z-score
TTAGATTTCGGTTATCGATTAGTGCTA | 4.64 z-score
GACGATCTCGGTCTCGAGACGTGCTAG | 0.735 z-score
GACGGTTTCGACCCTGGGGACGTGCTA | 2.35 z-score
TCCTCTTTCACTGCTCCATACGTGCTA | 2.02 z-score
TTAGGTATCGACACTGGGTTAGTGCTA | 0.143 z-score
TTAGGTTTCGGTTTCGGGTAGTGCTAG | 11.4 z-score

Excerpt of the above (block 2):
Sequence | RBNS enrichment (R)
GUGAGCAUCGCAGUAGCCAGCCACAGAAGCUAACAAGCCUUGAACCACUCUGGUGGCCACACAGCGCCUCAGAGAGCAUUCUGGGAAGUGCCUGUUUCCGAGGAACCCUG | 0.345
AGGCUCAGUCUUUAGAGGCACUCCCUCUAGUUGAUUAGCACUGUCUUCUGUGGAGUUUGGUUCAAAGACUGGUAUGGCAGAUAGAGGCUUGGAUGCAUUUUUCAUCAGGC | 0.528
GGCACAUUCCUGUACCCUUUAAAUGGGAAAGCAGUUAACGGAAGGGCCACAGGGUCAGAUGAGGGCUGCCUUUCGCUGCUGUGAACACUUACAGUACACCUGACUUGGAA | 0.73
UGGCCCUGGCAGCCCCGCCAUCCCCAUCCCCUGCCACGUGCUGCUCCCUCCAUCUGGUCCCUGCCCCUCAGCCAGCGGAGGAGCCCGCUGGGCCCUUCCCUGCCCGUCCC | 0.335
AGAGGCCACCUAGUCACUGGUCCACAUAACCCUUGACCCCUUCUUCUUCAUAGAGGAAACAAUGUGCCAGUCUUAUUCUUUUCUUCAACAACCUUGACUUCCAUGGAGGA | 0.495
UGUUAUAACUUAGUGACUUUUGAUUUCUAGAGGUGUAAAUGAGGAUGUAAAAAUUGAUAUAGUUGUGAUACAGAGUAUAUUUCCCUUCAGAUAACAUACCACAACACAAU | 0.593
UUGGGCUGCCCCCAUCUCUCCCAACAAGGUGUACAUAUUCUGCGUAGAUGCUAGACCAACCAGCUUCCCAGGGUUCGUCGCUGUGAGGCGUAAGGGACAUGAAUUCUAGG | 0.278
GCUGCAGCUCUGCAUGCAAUUUAGUGGAAAAGAAGAGGAAGUCCAGACUUGAGUUGCCUGGCUACAUUGCUGAAAGCUUUGUAGCACUUGAAAAUUAAAUAUUGAUUUGU | 0.953
AGAGGGAUUAAGCCCACACCCUGGCUUCCAUUCCAUAUCAGGUACAGGAUUUGAUGUUAUUAACAUUUGUCGUCAUACCUCAUAAGUCGGUCCCUGCCUUGUCUGUCUAG | 0.29
